Published values from different studies.
Each line is one published result; not all experiments were run side by side. Several values in a cell are separate wells, animals, samples, runs or records. ± gives the spread as reported.
PTPN1: Tyrosine-protein phosphatase non-receptor type 1 (PTPN1, Homo sapiens, UniProt P18031)

Chains of the proteins cited; added tags and fusions are not shown. Residues count along the entry.
UniProt P18031, 1-321 limits assumed: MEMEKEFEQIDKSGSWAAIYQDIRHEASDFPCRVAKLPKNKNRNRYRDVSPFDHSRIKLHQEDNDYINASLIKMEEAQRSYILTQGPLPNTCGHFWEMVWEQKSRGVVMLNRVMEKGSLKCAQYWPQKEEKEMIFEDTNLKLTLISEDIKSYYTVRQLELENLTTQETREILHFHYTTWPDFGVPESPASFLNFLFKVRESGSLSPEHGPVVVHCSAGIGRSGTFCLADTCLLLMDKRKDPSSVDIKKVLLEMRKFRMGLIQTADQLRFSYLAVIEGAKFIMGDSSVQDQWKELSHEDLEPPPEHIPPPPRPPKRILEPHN
UniProt O60704, 25-377 limits assumed: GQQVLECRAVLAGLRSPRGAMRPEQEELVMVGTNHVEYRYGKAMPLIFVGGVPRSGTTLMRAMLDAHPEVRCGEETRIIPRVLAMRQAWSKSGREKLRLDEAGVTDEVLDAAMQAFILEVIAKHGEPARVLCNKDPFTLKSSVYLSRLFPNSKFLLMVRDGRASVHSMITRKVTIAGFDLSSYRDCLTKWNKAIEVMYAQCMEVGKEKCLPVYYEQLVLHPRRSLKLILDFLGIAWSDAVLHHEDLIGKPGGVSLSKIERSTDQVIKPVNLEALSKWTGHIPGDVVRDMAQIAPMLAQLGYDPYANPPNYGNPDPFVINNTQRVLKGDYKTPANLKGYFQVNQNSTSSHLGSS
UniProt Q66478, 863-1012 limits assumed: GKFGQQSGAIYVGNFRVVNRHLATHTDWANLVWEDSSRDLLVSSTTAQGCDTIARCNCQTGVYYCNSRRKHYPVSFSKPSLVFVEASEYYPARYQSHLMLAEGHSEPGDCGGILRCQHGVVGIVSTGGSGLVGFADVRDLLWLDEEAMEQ
UniProt Q16539, whole entry: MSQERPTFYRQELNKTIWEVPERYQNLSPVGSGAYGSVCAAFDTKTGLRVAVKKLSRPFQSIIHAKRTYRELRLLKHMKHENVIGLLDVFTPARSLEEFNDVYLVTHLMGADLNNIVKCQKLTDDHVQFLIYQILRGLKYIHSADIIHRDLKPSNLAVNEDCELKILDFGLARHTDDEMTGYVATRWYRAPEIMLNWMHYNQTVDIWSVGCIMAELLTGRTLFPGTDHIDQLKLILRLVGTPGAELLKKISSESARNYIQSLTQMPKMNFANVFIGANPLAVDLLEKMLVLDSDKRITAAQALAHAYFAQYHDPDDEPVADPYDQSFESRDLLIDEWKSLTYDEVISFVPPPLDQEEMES
UniProt Q9UBN7, whole entry: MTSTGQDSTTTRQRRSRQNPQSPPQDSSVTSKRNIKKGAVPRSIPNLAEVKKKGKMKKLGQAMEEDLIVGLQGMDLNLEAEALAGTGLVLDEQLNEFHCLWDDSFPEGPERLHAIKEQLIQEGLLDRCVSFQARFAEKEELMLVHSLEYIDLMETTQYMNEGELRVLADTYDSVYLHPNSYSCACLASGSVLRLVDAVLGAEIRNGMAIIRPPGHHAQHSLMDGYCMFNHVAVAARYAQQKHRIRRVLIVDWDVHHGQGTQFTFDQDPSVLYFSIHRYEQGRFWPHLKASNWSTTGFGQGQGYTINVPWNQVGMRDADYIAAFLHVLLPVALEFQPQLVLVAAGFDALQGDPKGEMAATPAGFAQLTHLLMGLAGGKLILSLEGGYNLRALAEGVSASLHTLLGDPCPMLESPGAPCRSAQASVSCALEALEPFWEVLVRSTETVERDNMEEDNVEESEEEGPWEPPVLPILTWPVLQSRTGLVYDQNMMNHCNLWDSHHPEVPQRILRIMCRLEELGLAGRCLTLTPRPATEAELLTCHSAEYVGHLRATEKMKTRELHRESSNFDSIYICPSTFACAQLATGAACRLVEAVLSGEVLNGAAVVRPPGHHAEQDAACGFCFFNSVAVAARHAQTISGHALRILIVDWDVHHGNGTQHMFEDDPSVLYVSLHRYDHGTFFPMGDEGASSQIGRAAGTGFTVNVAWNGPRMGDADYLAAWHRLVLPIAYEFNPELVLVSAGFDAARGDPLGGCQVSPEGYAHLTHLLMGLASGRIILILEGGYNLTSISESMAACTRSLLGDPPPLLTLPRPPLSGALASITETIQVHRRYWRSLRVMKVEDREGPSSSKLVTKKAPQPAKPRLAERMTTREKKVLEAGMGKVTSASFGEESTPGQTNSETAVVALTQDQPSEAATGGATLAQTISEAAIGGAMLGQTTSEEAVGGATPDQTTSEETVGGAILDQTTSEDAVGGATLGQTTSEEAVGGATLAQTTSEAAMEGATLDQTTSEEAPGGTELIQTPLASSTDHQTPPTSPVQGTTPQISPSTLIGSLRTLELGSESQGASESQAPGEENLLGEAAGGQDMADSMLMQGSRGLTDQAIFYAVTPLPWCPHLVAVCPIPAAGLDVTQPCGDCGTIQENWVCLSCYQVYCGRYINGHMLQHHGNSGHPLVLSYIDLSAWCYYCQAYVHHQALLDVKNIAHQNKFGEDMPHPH
UniProt P00639, whole entry, looked up: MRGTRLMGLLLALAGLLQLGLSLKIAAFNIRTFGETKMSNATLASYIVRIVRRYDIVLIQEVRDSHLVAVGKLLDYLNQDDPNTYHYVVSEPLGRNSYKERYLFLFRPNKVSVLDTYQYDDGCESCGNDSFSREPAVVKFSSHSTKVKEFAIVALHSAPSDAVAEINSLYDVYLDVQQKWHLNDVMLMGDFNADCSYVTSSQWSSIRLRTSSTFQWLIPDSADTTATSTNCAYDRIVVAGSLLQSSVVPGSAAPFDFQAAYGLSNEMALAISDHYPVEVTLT
UniProt O60502, whole entry: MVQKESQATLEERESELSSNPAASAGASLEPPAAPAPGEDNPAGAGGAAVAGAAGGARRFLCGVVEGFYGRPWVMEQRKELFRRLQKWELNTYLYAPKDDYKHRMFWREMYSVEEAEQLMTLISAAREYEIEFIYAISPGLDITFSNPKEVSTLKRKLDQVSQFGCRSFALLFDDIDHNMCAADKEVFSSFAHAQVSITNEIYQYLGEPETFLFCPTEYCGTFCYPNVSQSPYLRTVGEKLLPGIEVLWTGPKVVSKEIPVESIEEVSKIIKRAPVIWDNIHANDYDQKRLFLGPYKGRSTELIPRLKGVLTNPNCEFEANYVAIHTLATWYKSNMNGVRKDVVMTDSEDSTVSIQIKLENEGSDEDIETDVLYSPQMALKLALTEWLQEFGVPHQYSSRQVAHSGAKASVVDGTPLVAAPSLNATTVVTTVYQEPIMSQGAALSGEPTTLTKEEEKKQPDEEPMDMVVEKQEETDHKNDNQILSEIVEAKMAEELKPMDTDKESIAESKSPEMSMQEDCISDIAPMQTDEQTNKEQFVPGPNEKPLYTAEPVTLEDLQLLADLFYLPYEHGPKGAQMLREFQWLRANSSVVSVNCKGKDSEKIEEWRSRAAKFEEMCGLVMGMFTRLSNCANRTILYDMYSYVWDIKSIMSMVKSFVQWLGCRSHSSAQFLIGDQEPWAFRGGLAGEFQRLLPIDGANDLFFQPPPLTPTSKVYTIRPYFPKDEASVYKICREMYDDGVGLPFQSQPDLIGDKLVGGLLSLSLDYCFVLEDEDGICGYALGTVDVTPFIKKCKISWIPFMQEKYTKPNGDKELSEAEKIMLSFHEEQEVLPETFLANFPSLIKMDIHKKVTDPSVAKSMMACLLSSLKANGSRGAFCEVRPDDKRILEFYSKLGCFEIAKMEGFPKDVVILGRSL

SMILES | tested on | assay | system | setting | how to read | quantity | value
CC[C@H](C)[C@H](NC(=O)[C@H](CC(=O)O)NC(=O)[C@@H]1CCCN1C(=O)[C@H](Cc1ccc(O)cc1)NC(=O)[C@H](Cc1ccc(O)cc1)NC(=O)[C@H](Cc1ccc(OS(=O)(=O)O)cc1)NC(=O)[C@H](CC(=O)O)NC(=O)[C@@H](NC(=O)[C@@H](N)C(C)C)[C@@H](C)O)C(=O)O | Protein-tyrosine sulfotransferase 2 (Homo sapiens, UniProt O60704) | substrate, LC-MS initial velocity | – | pH 7.5, 30 °C, reaction 2, added: saturating PAPS | – | Km | 3.1 µM
CC[C@H](C)[C@H](NC(=O)[C@H](CCCCN)NC(=O)[C@H](CC(=O)O)NC(=O)[C@H](CCCNC(=N)N)NC(=O)c1ccc(N=Nc2ccc(N(C)C)cc2)cc1)C(=O)N[C@H](C(=O)N[C@@H](Cc1ccccc1)C(=O)N[C@@H](CCSC)C(=O)NCC(=O)N[C@@H](CCCCN)C(=O)N[C@@H](Cc1ccccc1)C(=O)NCC(=O)N[C@@H](CCC(N)=O)C(=O)N[C@@H](CC(=O)O)C(=O)N[C@@H](CCC(=O)NCCNc1cccc2c(S(=O)(=O)O)cccc12)C(N)=O)[C@@H](C)O | Genome polyprotein, 2A protease (Enterovirus A71, UniProt Q66478) | protease activity, substrate, FRET | enterovirus 71 | pH 7.4, 30 °C | – | Km | 32.5 ± 2.87 µM
CC(=O)N[C@@H](C)C(=O)N[C@@H](C)C(=O)N[C@@H](Cc1ccc(OP(=O)(O)O)cc1)C(=O)N[C@@H](Cc1c[nH]c2ccccc12)C(=O)N[C@@H](C)C(=O)N[C@@H](Cc1ccc(O)cc1)C(=O)N[C@@H](CC(=O)O)C(=O)N[C@@H](CC(=O)O)C(N)=O | PTPN1 | substrate | – | pH 7.4, catalytic domain | – | Km | 2.3 ± 0.4 µM
CC(=O)N[C@@H](C)C(=O)N[C@H](C(=O)N[C@@H](C)C(=O)N[C@@H](CC(=O)O)C(=O)N[C@H](C(=O)N[C@@H](Cc1ccc(OP(=O)(O)O)cc1)C(=O)N[C@@H](C)C(=O)N[C@@H](C)C(N)=O)C(C)C)[C@@H](C)O | PTPN1 | substrate, continuous UV | – | pH 7.4, multiply phosphorylated peptides apparent | – | Km | 12 ± 2 µM
CCOC(=O)c1c(-c2ccc(Cl)cc2Cl)n(-c2nc(-c3ccc(Cl)cc3)c3c(NC(=O)c4ccccc4)nnc-3[nH]2)[nH]c1=O | SNB-75 | SRB | – | 10 µM | – | cell growth | 29.2%
CC(=O)N[C@@H](C)C(=O)N[C@@H](CO)C(=O)N[C@@H](CO)C(=O)N[C@@H](CC(=O)O)C(=O)N[C@@H](CCC(=O)O)C(=O)N[C@@H](Cc1ccc(OP(=O)(O)O)cc1)C(=O)N[C@@H](C)C(=O)N[C@@H](C)C(N)=O | PTPN1 | substrate | – | pH 7.4, catalytic domain | – | Km | 1.8 ± 0.1 µM
CC(=O)N[C@@H](CC(=O)O)C(=O)N[C@H](C(=O)N[C@@H](C)C(=O)N[C@@H](CC(=O)O)C(=O)N[C@@H](C)C(=O)N[C@@H](Cc1ccc(OP(=O)(O)O)cc1)C(=O)N[C@@H](C)C(=O)N[C@@H](C)C(N)=O)[C@@H](C)O | PTPN1 | substrate, continuous UV | – | pH 7.4, multiply phosphorylated peptides apparent | – | Km | 35 ± 2 µM
CC[C@H](C)[C@H](NC(=O)[C@H](CC(=O)O)NC(=O)[C@H](CC(=O)O)NC(=O)[C@H](Cc1ccc(OP(=O)(O)O)cc1)NC(=O)[C@H](C)NC(=O)[C@H](C)NC(C)=O)C(=O)N[C@@H](CC(=O)O)C(=O)N[C@@H](CCC(=O)O)C(N)=O | PTPN1 | substrate | – | pH 7.4, catalytic domain | – | Km | 3.5 ± 0.1 µM
C=C(C)C(=O)Nc1ccc(-c2c(-c3ccc(Oc4nccc(C)n4)c(F)c3)c3c(N)ncnc3n2C)cc1 | MFM-223 | cell growth, CellTiter-Glo | – | 120 h | – | IC50 | 5.8 nM
CC[C@H](C)[C@H](NC(=O)[C@@H]1CCCN1C(=O)[C@H](Cc1ccccc1)NC(=O)[C@H](Cc1ccc(OP(=O)(O)O)cc1)NC(=O)[C@H](C)NC(C)=O)C(=O)N[C@@H](Cc1c[nH]c2ccccc12)C(=O)N[C@@H](Cc1ccc(OP(=O)(O)O)cc1)C(=O)N[C@@H](C)C(=O)N[C@@H](C)C(N)=O | PTPN1 | substrate, continuous UV | – | pH 7.4, multiply phosphorylated peptides apparent | – | Km | 3.5 ± 0.4 µM
CC(C)C[C@H](NC(=O)[C@H](C)NC(=O)[C@H](CCCNC(=N)N)NC(=O)[C@H](CCCNC(=N)N)NC(=O)[C@H](CCCNC(=N)N)NC(=O)[C@H](C)NC(=O)[C@H](CC(C)C)NC(=O)[C@H](CCCNC(=N)N)NC(=O)[C@H](CO)NC(=O)[C@H](CCCCN)NC(=O)[C@H](CO)NC(=O)Cn1cc(COC(=O)[C@]2(C)C=C(C(=O)OC(C)(C)C)C(=O)CC2)nn1)C(=O)O | MAPK14 (Homo sapiens, UniProt Q16539) | enzyme activity, inhibitor, D-SENSOR kinase | – | 66.67 µM, unit not given | reference: untreated | remaining activity | 0.0129 and 0.00576 and 0.002
CC(=O)N[C@@H](CCCNC(=N)N)C(=O)N[C@H](C(=O)N[C@@H](CC(C)C)C(=O)N[C@@H](C)C(=O)N[C@@H](C)C(=O)N[C@@H](Cc1ccc(OP(=O)(O)O)cc1)C(=O)N[C@@H](CCCNC(=N)N)C(=O)N[C@@H](Cc1ccccc1)C(=O)N[C@@H](CCC(N)=O)C(=O)N[C@@H](CCCCN)C(N)=O)[C@@H](C)O | PTPN1 | substrate, continuous UV | – | pH 7.4, multiply phosphorylated peptides apparent | – | Km | 165 ± 18 µM
CC(=O)NCCCC[C@H](NC(=O)[C@H](CCCCNC(C)=O)NC(=O)[C@H](Cc1c[nH]cn1)NC(=O)[C@H](CCCNC(=N)N)NC(C)=O)C(=O)Nc1ccc2c(C)cc(=O)oc2c1 | HDAC6 (Homo sapiens, UniProt Q9UBN7) | substrate | – | 25 °C | – | Km | 9 ± 3 µM
N#Cc1c(-c2ccc(Cl)cc2Cl)n(-c2nc(-c3ccc(Cl)cc3)c3c(NC(=O)c4ccccc4)nnc-3[nH]2)[nH]c1=O | SN12C | SRB | – | 10 µM | – | cell growth | 32.5%
CC/C=C\C/C=C\CCC/C=C/C=C/C=C\CCCC(=O)O | Deoxyribonuclease-1 (DNASE1, Bos taurus, UniProt P00639) | enzyme activity, inhibitor | – | – | – | IC50 | > 100000 nM
CC(=O)N[C@H]1[C@H](OC[C@H](NC(=O)[C@H](Cc2c[nH]cn2)NC(=O)[C@H](C)NC(=O)[C@@H](NC(=O)[C@H](CCC(N)=O)NC(C)=O)C(C)C)C(=O)NCC(=O)N[C@@H](C)C(=O)N[C@@H](CCCCN)C(=O)N[C@@H](C)C(=O)N[C@@H](CO)C(N)=O)O[C@H](CO)[C@@H](O)[C@@H]1O | Protein O-GlcNAcase (OGA, Homo sapiens, UniProt O60502) | substrate | – | pH 7.5, 37 °C, added: 4MU-GlcNAc 200 µM competition | – | Km | 528 ± 15 µM
CC(C)C[C@H](NC(=O)[C@@H](NC(=O)[C@H](CC(C)C)NC(=O)[C@H](CS)NC(=O)CNS(=O)(=O)c1cccc2c(N(C)C)cccc12)C(C)C)C(=O)O | geranylgeranyltransferase type-I (Rattus norvegicus, UniProt P53610+Q04631) | substrate, fluorescence | – | 30 °C, added: SmgGDS-607 5 µM, GTP 30 µM and GGPP 10 µM | – | Km | 2.5 ± 1.6 µM

A few entries again:
SMILES | tested on | assay | system | setting | how to read | quantity | value
CC[C@H](C)[C@H](NC(=O)[C@@H]1CCCN1C(=O)[C@H](Cc1ccccc1)NC(=O)[C@H](Cc1ccc(OP(=O)(O)O)cc1)NC(=O)[C@H](C)NC(C)=O)C(=O)N[C@@H](Cc1c[nH]c2ccccc12)C(=O)N[C@@H](Cc1ccc(OP(=O)(O)O)cc1)C(=O)N[C@@H](C)C(=O)N[C@@H](C)C(N)=O | PTPN1 | substrate, continuous UV | – | pH 7.4, multiply phosphorylated peptides apparent | – | Km | 3.5 ± 0.4 µM
CC(=O)N[C@@H](C)C(=O)N[C@H](C(=O)N[C@@H](C)C(=O)N[C@@H](CC(=O)O)C(=O)N[C@H](C(=O)N[C@@H](Cc1ccc(OP(=O)(O)O)cc1)C(=O)N[C@@H](C)C(=O)N[C@@H](C)C(N)=O)C(C)C)[C@@H](C)O | PTPN1 | substrate, continuous UV | – | pH 7.4, multiply phosphorylated peptides apparent | – | Km | 12 ± 2 µM
